{"data": "Published values gathered from unrelated publications", "note": "Parts stem from different laboratories: compare values within a part only.", "UniProt P33981, sequence (whole entry, looked up)": "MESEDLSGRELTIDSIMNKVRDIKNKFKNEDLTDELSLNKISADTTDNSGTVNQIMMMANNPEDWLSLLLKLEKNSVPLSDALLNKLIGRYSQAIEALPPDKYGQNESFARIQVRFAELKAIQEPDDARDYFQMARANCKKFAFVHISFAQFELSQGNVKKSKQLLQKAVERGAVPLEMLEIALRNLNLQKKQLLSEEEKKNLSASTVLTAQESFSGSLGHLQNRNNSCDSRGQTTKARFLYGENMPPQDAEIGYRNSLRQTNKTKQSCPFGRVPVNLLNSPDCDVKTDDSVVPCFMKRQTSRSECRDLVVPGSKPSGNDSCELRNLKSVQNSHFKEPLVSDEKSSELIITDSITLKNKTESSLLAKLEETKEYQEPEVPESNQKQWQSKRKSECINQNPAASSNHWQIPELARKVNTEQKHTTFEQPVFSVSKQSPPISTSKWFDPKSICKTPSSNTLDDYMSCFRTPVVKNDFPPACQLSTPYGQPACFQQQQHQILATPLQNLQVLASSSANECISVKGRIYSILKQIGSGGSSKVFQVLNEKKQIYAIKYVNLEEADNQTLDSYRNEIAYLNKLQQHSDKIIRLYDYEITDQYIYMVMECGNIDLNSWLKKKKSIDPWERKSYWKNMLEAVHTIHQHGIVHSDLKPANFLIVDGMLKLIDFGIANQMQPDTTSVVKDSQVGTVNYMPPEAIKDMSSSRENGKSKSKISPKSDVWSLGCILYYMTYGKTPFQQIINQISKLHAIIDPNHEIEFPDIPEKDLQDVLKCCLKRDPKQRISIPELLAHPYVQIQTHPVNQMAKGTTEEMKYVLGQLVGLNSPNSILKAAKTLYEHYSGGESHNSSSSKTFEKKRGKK", "UniProt P29322, sequence (whole entry, looked up)": "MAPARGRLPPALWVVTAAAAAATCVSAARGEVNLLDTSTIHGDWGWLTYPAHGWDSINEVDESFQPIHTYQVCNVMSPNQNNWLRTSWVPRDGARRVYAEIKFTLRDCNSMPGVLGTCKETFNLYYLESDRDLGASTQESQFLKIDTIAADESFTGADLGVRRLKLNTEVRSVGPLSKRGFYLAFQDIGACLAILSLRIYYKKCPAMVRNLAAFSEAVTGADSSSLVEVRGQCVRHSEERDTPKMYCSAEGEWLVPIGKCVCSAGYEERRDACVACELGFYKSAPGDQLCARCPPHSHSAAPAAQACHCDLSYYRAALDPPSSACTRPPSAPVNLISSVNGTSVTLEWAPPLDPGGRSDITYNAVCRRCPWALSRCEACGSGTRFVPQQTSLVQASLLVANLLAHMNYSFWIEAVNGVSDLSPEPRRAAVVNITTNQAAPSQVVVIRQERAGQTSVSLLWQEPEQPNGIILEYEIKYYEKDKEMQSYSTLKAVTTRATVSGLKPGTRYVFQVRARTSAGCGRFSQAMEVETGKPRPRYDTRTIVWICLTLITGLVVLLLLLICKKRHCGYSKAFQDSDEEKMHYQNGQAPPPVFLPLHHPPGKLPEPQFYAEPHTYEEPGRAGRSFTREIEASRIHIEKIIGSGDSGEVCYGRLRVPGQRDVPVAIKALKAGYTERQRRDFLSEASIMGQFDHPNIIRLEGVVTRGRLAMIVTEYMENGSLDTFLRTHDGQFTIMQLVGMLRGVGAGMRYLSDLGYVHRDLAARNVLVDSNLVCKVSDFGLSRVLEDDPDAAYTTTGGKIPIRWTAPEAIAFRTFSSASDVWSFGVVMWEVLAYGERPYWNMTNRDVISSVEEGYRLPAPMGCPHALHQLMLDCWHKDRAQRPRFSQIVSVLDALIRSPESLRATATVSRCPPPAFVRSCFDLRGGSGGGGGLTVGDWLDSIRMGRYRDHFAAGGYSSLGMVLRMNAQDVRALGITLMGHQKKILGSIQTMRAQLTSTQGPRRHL", "UniProt Q02750, sequence (whole entry, looked up)": "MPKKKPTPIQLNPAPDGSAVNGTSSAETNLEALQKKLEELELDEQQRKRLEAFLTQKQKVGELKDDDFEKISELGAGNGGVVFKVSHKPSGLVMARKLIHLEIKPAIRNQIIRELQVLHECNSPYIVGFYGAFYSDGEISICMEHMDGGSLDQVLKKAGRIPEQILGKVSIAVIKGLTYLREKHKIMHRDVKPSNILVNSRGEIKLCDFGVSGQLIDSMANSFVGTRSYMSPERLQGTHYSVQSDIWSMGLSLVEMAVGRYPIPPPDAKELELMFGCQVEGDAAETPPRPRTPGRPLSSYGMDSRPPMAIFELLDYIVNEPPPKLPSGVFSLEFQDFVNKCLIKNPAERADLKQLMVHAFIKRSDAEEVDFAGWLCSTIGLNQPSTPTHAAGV", "UniProt Q13976, sequence (whole entry, looked up)": "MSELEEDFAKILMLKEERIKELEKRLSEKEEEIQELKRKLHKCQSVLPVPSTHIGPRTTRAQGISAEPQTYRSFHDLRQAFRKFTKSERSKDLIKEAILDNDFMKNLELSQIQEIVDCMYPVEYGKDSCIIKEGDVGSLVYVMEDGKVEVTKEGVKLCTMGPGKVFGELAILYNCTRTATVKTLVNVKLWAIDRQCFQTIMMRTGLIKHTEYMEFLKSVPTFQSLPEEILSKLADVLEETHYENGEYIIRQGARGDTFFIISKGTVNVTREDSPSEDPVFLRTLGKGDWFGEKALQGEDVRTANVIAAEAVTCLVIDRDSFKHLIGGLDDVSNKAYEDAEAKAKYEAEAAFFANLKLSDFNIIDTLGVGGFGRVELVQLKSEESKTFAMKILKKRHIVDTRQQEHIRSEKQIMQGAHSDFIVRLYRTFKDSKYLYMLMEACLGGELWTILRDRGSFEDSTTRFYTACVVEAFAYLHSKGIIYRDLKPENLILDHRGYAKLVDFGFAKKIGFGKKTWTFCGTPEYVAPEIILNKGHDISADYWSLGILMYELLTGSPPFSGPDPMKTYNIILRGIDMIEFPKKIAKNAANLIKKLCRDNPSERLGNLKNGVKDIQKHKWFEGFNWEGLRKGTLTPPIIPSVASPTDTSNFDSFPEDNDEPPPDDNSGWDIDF", "UniProt Q13873, sequence (whole entry, looked up)": "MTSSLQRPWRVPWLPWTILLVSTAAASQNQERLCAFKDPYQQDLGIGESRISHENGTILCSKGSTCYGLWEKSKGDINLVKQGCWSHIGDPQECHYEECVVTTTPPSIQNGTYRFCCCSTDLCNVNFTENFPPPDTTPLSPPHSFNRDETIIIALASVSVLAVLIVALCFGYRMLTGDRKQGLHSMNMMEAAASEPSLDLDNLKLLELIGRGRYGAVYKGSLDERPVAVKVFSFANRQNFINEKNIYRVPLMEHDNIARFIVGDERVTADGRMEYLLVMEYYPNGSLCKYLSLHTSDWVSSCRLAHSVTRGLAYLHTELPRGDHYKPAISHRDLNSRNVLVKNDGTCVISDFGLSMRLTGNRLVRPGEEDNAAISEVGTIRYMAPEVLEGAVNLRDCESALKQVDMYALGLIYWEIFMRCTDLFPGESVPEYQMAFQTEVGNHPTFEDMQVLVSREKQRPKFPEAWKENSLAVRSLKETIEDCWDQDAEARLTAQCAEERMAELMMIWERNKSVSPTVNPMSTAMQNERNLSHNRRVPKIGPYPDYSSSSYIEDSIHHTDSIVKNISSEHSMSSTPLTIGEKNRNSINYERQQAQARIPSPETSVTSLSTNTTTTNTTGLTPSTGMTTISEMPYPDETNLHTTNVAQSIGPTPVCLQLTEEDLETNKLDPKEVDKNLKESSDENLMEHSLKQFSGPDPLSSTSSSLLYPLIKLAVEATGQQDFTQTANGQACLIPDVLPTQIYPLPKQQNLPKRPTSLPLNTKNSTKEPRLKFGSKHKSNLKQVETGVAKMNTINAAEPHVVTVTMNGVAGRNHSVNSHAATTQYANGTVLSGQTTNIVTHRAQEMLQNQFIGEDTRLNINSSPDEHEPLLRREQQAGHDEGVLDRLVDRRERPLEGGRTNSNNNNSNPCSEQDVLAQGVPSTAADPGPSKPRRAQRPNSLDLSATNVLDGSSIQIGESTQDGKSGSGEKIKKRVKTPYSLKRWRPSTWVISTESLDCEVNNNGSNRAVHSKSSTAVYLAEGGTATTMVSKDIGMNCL"}
{"data": "Series 1", "target": "Ephrin type-A receptor 1 (EPHA1, Homo sapiens, UniProt P21709)", "effect on": "enzyme activity", "mode": "inhibitor", "tested at": "0.5 µM", "reference": "control", "UniProt P21709, sequence (whole entry, looked up)": "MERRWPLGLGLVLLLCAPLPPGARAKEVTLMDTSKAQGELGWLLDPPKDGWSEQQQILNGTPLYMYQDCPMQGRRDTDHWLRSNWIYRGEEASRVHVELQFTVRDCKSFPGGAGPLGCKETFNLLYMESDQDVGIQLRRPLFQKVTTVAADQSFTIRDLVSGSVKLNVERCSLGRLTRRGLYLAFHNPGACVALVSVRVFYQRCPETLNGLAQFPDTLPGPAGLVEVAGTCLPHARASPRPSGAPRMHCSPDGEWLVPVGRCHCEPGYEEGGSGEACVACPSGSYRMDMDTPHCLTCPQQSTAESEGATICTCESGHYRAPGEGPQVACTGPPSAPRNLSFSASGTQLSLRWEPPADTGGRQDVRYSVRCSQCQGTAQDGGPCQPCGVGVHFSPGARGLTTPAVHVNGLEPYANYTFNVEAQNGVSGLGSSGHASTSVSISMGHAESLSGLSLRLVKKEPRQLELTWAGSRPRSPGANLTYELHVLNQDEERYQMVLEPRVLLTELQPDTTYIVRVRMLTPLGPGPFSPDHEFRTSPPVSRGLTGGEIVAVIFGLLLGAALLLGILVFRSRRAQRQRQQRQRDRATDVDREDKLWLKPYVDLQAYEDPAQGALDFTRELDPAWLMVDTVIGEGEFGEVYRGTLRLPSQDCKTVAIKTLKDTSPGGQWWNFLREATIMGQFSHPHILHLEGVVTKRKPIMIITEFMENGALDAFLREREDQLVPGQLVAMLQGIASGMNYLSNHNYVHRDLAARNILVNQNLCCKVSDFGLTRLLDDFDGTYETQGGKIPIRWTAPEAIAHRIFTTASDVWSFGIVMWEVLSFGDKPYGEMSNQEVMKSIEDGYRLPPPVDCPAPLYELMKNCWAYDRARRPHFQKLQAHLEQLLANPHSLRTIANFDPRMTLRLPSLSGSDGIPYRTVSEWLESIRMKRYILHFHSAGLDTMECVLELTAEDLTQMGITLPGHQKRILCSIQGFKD"}
{"Structure (SMILES)": "CN([C@@H](Cc1ccc(OS(=O)(=O)c2cccc3cnccc23)cc1)C(=O)N1CCN(c2ccccc2)CC1)S(=O)(=O)c1cccc2cnccc12", "remaining activity": "102%"}
{"Structure (SMILES)": "c1ccc(-c2[nH]ncc2-c2ccnc3ccccc23)nc1", "remaining activity": "97.7%"}
{"Structure (SMILES)": "CCOc1nc(NC(=O)Cc2cc(OC)ccc2OC)cc(N)c1C#N", "remaining activity": "97.4%"}
{"Structure (SMILES)": "O=C(Nc1cccc(Nc2nccc(Nc3cccc(C(F)(F)F)c3)n2)c1)C1CC1", "remaining activity": "81.8%"}
{"Structure (SMILES)": "N#C/C(=C\\c1ccc(O)c(O)c1)C(=O)NCc1ccccc1", "remaining activity": "99.4%"}
{"Structure (SMILES)": "O=C(NC(NC(=S)Nc1ccc(F)c([N+](=O)[O-])c1)C(Cl)(Cl)Cl)C(c1ccccc1)c1ccccc1 (stereo not shown)", "remaining activity": "88.1%"}
{"Structure (SMILES)": "O=C1C(Cl)=C(N2C(=O)CCC2=O)C(=O)c2ccccc21", "remaining activity": "97.6%"}
{"Structure (SMILES)": "COc1cc2ncnc(Nc3ccc(O)c(Br)c3)c2cc1OC", "remaining activity": "80.4%"}
{"Structure (SMILES)": "Cc1cn(-c2cc(NC(=O)c3ccc(C)c(Nc4nccc(-c5cccnc5)n4)c3)cc(C(F)(F)F)c2)cn1", "remaining activity": "63.2%"}
{"Structure (SMILES)": "Cc1cc2ncc(-c3ccccc3)nc2cc1C", "remaining activity": "99.9%"}
{"Structure (SMILES)": "N#Cc1c(NC(=O)c2cccc3ccccc23)sc2c1CCCC2", "remaining activity": "103%"}
{"Structure (SMILES)": "CN(C)C[C@H]1CCn2c(c(C3=C(c4cn(C)c5ccccc45)C(=O)NC3=O)c3ccccc32)C1", "remaining activity": "100%"}
{"Structure (SMILES)": "CCN(CC)C(=O)c1ccc(Nc2nc(OCC3CCCCC3)c3[nH]cnc3n2)cc1", "remaining activity": "90.2%"}
{"Structure (SMILES)": "Cc1nc2cc3nc(-c4cccs4)cnc3cc2n1C", "remaining activity": "87.1%"}
{"Structure (SMILES)": "COc1cc2c(cc1OC)-c1[nH]nc(Nc3cccc(F)c3)c1C2", "remaining activity": "102%"}
{"Structure (SMILES)": "CCN(CC)CCNC(=O)c1c(C)[nH]c(/C=C2\\C(=O)Nc3ccc(F)cc32)c1C", "remaining activity": "95.1%"}
{"Structure (SMILES)": "COc1cc2ncnc(Nc3cccc(Cl)c3)c2cc1OC", "remaining activity": "81.7%"}
{"Structure (SMILES)": "Ic1cccc(CSc2nnc(-c3ccncc3)o2)c1", "remaining activity": "97%"}
{"Structure (SMILES)": "O=c1cc(-c2cccc3c2Sc2ccccc2S3)oc(N2CCOCC2)c1", "remaining activity": "84.7%"}
{"Structure (SMILES)": "CCN(CC)CCNC(=O)c1c(C)[nH]c(/C=C2\\C(=O)Nc3ccc(Cl)cc32)c1C", "remaining activity": "89.4%"}
{"Structure (SMILES)": "Cn1nc2c3c(cccc31)C(=O)c1ccccc1-2", "remaining activity": "94.8%"}
{"Structure (SMILES)": "c1ccc(-c2cnc(Nc3ccc(OCCN4CCCC4)cc3)s2)cc1", "remaining activity": "85.3%"}
{"Structure (SMILES)": "O=C1c2ccccc2-c2n[nH]c3cccc1c23", "remaining activity": "77.8%"}
{"Structure (SMILES)": "Nc1cccc(-c2cc3c(Oc4cccc(O)c4)ncnc3[nH]2)c1", "remaining activity": "31.2%"}
{"data": "Series 2", "SMILES": "CN(C)C(=O)Cn1cc(-c2nc(C3(c4ccc(-c5cnc(N)nc5)cc4)CC3)no2)cn1", "tested at": "1 µM"}
{"target": "TTK (Homo sapiens, UniProt P33981)", "test": "cell-free assay, competition with immobilised ligand", "remaining binding [%]": 100}
{"target": "MAPK11 (Homo sapiens, UniProt Q15759)", "test": "cell-free assay, competition with immobilised ligand", "remaining binding [%]": 86}
{"target": "SBK1 (Homo sapiens, UniProt Q52WX2)", "test": "cell-free assay, competition with immobilised ligand", "remaining binding [%]": 83}
{"target": "CDK19 (Homo sapiens, UniProt Q9BWU1)", "test": "competition binding", "remaining binding [%]": 93}
{"target": "Receptor-type tyrosine-protein kinase FLT3, autoinhibited (FLT3, Homo sapiens, UniProt P36888)", "test": "cell-free assay, competition with immobilised ligand", "remaining binding [%]": 81}
{"target": "MAP3K3 (Homo sapiens, UniProt Q99759)", "test": "cell-free assay, competition with immobilised ligand", "remaining binding [%]": 81}
{"target": "BMP2K (Homo sapiens, UniProt Q9NSY1)", "test": "cell-free assay, competition with immobilised ligand", "remaining binding [%]": 99}
{"target": "STK11 (Homo sapiens, UniProt Q15831)", "test": "cell-free assay, competition with immobilised ligand", "remaining binding [%]": 100}
{"target": "WNK3 (Homo sapiens, UniProt Q9BYP7)", "test": "cell-free assay, competition with immobilised ligand", "remaining binding [%]": 87}
{"target": "BMPR2 (Homo sapiens, UniProt Q13873)", "test": "cell-free assay, competition with immobilised ligand", "remaining binding [%]": 93}
{"target": "NEK3 (Homo sapiens, UniProt P51956)", "test": "cell-free assay, competition with immobilised ligand", "remaining binding [%]": 57}
{"target": "Aurora kinase C (AURKC, Homo sapiens, UniProt Q9UQB9)", "test": "cell-free assay, competition with immobilised ligand", "remaining binding [%]": 100}
{"target": "MAP2K1 (Homo sapiens, UniProt Q02750)", "test": "cell-free assay, competition with immobilised ligand", "remaining binding [%]": 82}
{"target": "MAP3K6 (Homo sapiens, UniProt O95382)", "test": "cell-free assay, competition with immobilised ligand", "remaining binding [%]": 78}
{"target": "AAK1 (Homo sapiens, UniProt Q2M2I8)", "test": "binding", "remaining binding [%]": 100}
{"target": "STK36 (Homo sapiens, UniProt Q9NRP7)", "test": "cell-free assay, competition with immobilised ligand", "remaining binding [%]": 75}
{"target": "EPHA8 (Homo sapiens, UniProt P29322)", "test": "cell-free assay, competition with immobilised ligand", "remaining binding [%]": 87}
{"target": "PIK3CA (Homo sapiens, UniProt P42336, E542K)", "test": "cell-free assay, competition with immobilised ligand", "remaining binding [%]": 76}
{"target": "MYLK4 (Homo sapiens, UniProt Q86YV6)", "test": "cell-free assay, competition with immobilised ligand", "remaining binding [%]": 100}
{"target": "EGFR (Homo sapiens, UniProt P00533, del746-750)", "test": "cell-free assay, competition with immobilised ligand", "remaining binding [%]": 67}
{"target": "Ribosomal protein S6 kinase alpha-6, C-terminal kinase domain (RPS6KA6, Homo sapiens, UniProt Q9UK32)", "test": "cell-free assay, competition with immobilised ligand", "remaining binding [%]": 100}
{"target": "MYLK2 (Homo sapiens, UniProt Q9H1R3)", "test": "cell-free assay, competition with immobilised ligand", "remaining binding [%]": 90}
{"target": "EGFR (Homo sapiens, UniProt P00533, del747-750/T751S)", "test": "cell-free assay, competition with immobilised ligand", "remaining binding [%]": 100}
{"target": "MAP3K19 (Homo sapiens, UniProt Q56UN5)", "test": "cell-free assay, competition with immobilised ligand", "remaining binding [%]": 73}
{"target": "MAP2K4 (Homo sapiens, UniProt P45985)", "test": "cell-free assay, competition with immobilised ligand", "remaining binding [%]": 93}
{"data": "Series 3", "SMILES": "O=C(Nc1ccccc1)Nc1cccc(Oc2ccc3nccn3n2)c1", "tested at": "1 µM"}
{"target": "CSNK1G3 (Homo sapiens, UniProt Q9Y6M4)", "test": "competitive binding panel", "how to read": "reference: vehicle", "remaining binding [%]": 98}
{"target": "GSK3A (Homo sapiens, UniProt P49840)", "test": "competitive binding panel", "how to read": "reference: vehicle", "remaining binding [%]": 50}
{"target": "WNK4 (Homo sapiens, UniProt Q96J92)", "test": "competitive binding panel", "how to read": "reference: vehicle", "remaining binding [%]": 83}
{"target": "PTK2 (Homo sapiens, UniProt Q05397)", "test": "competitive binding", "setting": "FAK", "remaining binding [%]": 100}
{"target": "MAP4K4 (Homo sapiens, UniProt O95819)", "test": "competitive binding panel", "how to read": "reference: vehicle", "remaining binding [%]": 100}
{"target": "CLK2 (Homo sapiens, UniProt P49760)", "test": "competitive binding panel", "how to read": "reference: vehicle", "remaining binding [%]": 100}
{"target": "PRKG1 (Homo sapiens, UniProt Q13976)", "test": "competitive binding panel", "how to read": "reference: vehicle", "remaining binding [%]": 96}
{"target": "PRKCH (Homo sapiens, UniProt P24723)", "test": "competitive binding panel", "how to read": "reference: vehicle", "remaining binding [%]": 100}
{"target": "STK32B (Homo sapiens, UniProt Q9NY57)", "test": "competitive binding panel, item: YANK2", "how to read": "reference: vehicle", "remaining binding [%]": 71}
{"target": "CSNK1D (Homo sapiens, UniProt P48730)", "test": "competitive binding panel", "how to read": "reference: vehicle", "remaining binding [%]": 100}
{"data": "Series 4", "SMILES": "CC(=O)N[C@@H](Cc1c[nH]c2ccccc12)C(=O)N[C@@H](CCC(=O)C=[N+]=[N-])C(=O)OC(C)C", "dose": "dose not given", "reference": "vehicle"}
{"test": "item: N-acetylaspartate", "test system": "Mus musculus, EL4 tumour", "log2 fold change": 1.72}
{"test": "item: citrate", "test system": "mouse, EL4 tumour-bearing, EL4 tumour", "log2 fold change": -0.423}
{"test": "item: N-acetylserine", "test system": "mouse, EL4 tumour-bearing, EL4 tumour", "log2 fold change": -0.522}
{"test": "item: 7-methylguanine", "test system": "mouse, EL4 tumour-bearing, EL4 tumour", "log2 fold change": -0.624}
{"test": "item: mannose 6-phosphate", "test system": "mouse, EL4 tumour-bearing, EL4 tumour", "log2 fold change": 0.775}
{"test": "item: inosine", "test system": "mouse, EL4 tumour-bearing, EL4 tumour", "log2 fold change": 0.0337}
{"test": "item: 1,5-anhydroglucitol", "test system": "mouse, EL4 tumour, tumour", "log2 fold change": 0.233}
{"test": "item: 1-methyl-4-imidazoleacetate", "test system": "mouse, EL4 tumour-bearing, EL4 tumour", "log2 fold change": 0.403}
{"test": "item: equol sulfate", "test system": "mouse, EL4 tumour-bearing, EL4 tumour", "log2 fold change": 0.579}
{"test": "item: alpha-hydroxyisocaproate", "test system": "mouse, EL4 tumour-bearing, EL4 tumour", "log2 fold change": -0.104}
{"test": "item: creatine", "test system": "mouse, EL4 tumour-bearing, EL4 tumour", "log2 fold change": 0.859}
{"test": "item: 2'-deoxyuridine", "test system": "mouse, EL4 tumour-bearing, EL4 tumour", "log2 fold change": 0.182}
{"test": "item: beta-alanine", "test system": "mouse, EL4 tumour-bearing, EL4 tumour", "log2 fold change": 0.289}
{"test": "item: methylsuccinate", "test system": "mouse, EL4 tumour-bearing, EL4 tumour", "log2 fold change": 2.58}
{"note": "Excerpt of the above (series 1):"}
{"Structure (SMILES)": "Cc1nc2cc3nc(-c4cccs4)cnc3cc2n1C", "remaining activity": "87.1%"}
{"Structure (SMILES)": "CCN(CC)C(=O)c1ccc(Nc2nc(OCC3CCCCC3)c3[nH]cnc3n2)cc1", "remaining activity": "90.2%"}
{"Structure (SMILES)": "Cc1cc2ncc(-c3ccccc3)nc2cc1C", "remaining activity": "99.9%"}
{"Structure (SMILES)": "O=C(NC(NC(=S)Nc1ccc(F)c([N+](=O)[O-])c1)C(Cl)(Cl)Cl)C(c1ccccc1)c1ccccc1 (stereo not shown)", "remaining activity": "88.1%"}
{"Structure (SMILES)": "O=C1c2ccccc2-c2n[nH]c3cccc1c23", "remaining activity": "77.8%"}
{"Structure (SMILES)": "O=C1C(Cl)=C(N2C(=O)CCC2=O)C(=O)c2ccccc21", "remaining activity": "97.6%"}
{"Structure (SMILES)": "CCN(CC)CCNC(=O)c1c(C)[nH]c(/C=C2\\C(=O)Nc3ccc(F)cc32)c1C", "remaining activity": "95.1%"}
